Results gathered from unrelated publications.
Each line is one published result; not all experiments were run side by side. “And” joins repeats or separate records; there may be more than shown.
Organism: SARS-CoV-2

The mean inhibition of `CC(C)=CCc1c(O)ccc(C(=O)/C=C/c2ccc(O)cc2)c1O` is reported as 0% (viral cytopathic effect; Vero E6; 6.25 µM).
The AC50 of `CCCCN(CCCC)CCCNC(=O)c1cc(-c2ccc(Cl)s2)nc2ccccc12` is reported as 6.31 µM (cytopathic effect, cell-based CPE; USA_WA1/2020; round 2, 5-point dilution).
`OCc1cc(C(O)CNCCCCCCOCCCCc2ccccc2)ccc1O` (stereo not drawn) gave an EC50 of over 100 µM (viral replication, high-content imaging screen; cell-based).
The maximum response of `CCCCN(C)CCNC(=O)c1cc(-c2ccc(Cl)s2)nc2ccccc12` is reported as 75.5% (cytopathic effect; USA_WA1/2020; round 1, 5-point).
`COc1ccc(C[C@@H]2c3cc(Oc4cc(C[C@@H]5c6cc(O)c(OC)cc6CCN5C)ccc4O)c(OC)cc3CCN2C)cc1` has a mean inhibition of 75% (cytopathic effect; Vero E6; 100 µM, replicate run).
`COc1cccc(CNC(=O)C2CCN(Cc3cc4ccccc4n3Cc3ccccc3)CC2)c1OC` has an AC50 of 12.6 µM (cytopathic effect, cell-based CPE; USA_WA1/2020; round 2, 5-point dilution).
`O=C(O[C@@H]1Cc2c(O)cc(O)cc2O[C@@H]1c1cc(O)c(O)c(O)c1)c1cc(O)c(O)c(O)c1` gave a CPE inhibition of 0% (viral replication; Vero E6; 0.7812 µM; reference: mean of replicates).
With `CC(CN1c2ccccc2Sc2ccccc21)N(C)C` (stereo not drawn) the EC50 was over 100 µM (viral replication, high-content imaging screen; cell-based).
With `O=C(/C=C/c1ccc(O)c(O)c1/C=C/c1ccc(O)c(O)c1)O[C@H](Cc1ccc(O)c(O)c1)C(=O)O` the mean inhibition was 0% (cytopathic effect; Vero E6; 25 µM, replicate run).
`COc1ccc2nc3c(c(N)c2c1)CCCC3` has an EC50 of 11.5 µM (viral replication, GFP plate reader screen; BetaCov/Belgium/GHB-03021/2020; cell-based).
`COc1ccc(-c2cn3c(n2)sc2cc(C(=O)NCCCN4CCCCCC4)ccc23)cc1` has a maximum response of 68.5% (cytopathic effect; USA_WA1/2020; round 2, 5-point).
For `COc1cc(Br)c2oc(C3CCNCC3)cc2c1`, the EC50 was 14.8 µM (viral replication, GFP plate reader screen; cell-based).
`Clc1ccc2nc(N3CCC(NCCc4cccnc4)CC3)sc2c1` has an AC50 of 14.1 µM (cytopathic effect, cell-based CPE; USA_WA1/2020; round 2, 5-point dilution).
For `COC(=O)[C@H]1[C@H]2C[C@@H]3c4[nH]c5cc(OC)ccc5c4CCN3C[C@H]2C[C@@H](OC(=O)/C=C/c2cc(OC)c(OC)c(OC)c2)[C@@H]1OC`, the EC50 was over 50.1 µM (viral replication, GFP plate reader screen; cell-based).
With `CC(C)(C)[C@H](NC(=O)C(F)(F)F)C(=O)N1C[C@H]2[C@@H]([C@H]1C(=O)N[C@H](C#N)C[C@@H]1CCNC1=O)C2(C)C` the inhibition was 93.2% and 119% and 105% (viral replication; Vero E6; 3 µM).
